Assay results collected from several papers.
Protocols differ between the studies behind these lines. ± marks the error that the study gave.
cyp121: Mycocyclosin synthase (cyp121, Mycobacterium tuberculosis, UniProt P9WPP7)
lasR: Transcriptional activator protein LasR (lasR, Pseudomonas aeruginosa, UniProt P25084)

Chains of the proteins cited; added tags and fusions are not shown. Residues count along the entry.
UniProt P9WPP7, whole entry: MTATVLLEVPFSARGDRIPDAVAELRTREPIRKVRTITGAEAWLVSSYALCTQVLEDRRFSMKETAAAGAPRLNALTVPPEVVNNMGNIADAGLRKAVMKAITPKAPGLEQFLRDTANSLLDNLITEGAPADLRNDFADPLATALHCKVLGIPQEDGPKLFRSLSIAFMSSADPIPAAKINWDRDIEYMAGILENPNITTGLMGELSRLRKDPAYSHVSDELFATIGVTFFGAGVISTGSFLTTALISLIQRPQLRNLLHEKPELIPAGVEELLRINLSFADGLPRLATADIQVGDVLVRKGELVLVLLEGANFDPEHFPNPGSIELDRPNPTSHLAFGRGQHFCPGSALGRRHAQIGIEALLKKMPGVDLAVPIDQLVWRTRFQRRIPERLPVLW
UniProt P25084, whole entry: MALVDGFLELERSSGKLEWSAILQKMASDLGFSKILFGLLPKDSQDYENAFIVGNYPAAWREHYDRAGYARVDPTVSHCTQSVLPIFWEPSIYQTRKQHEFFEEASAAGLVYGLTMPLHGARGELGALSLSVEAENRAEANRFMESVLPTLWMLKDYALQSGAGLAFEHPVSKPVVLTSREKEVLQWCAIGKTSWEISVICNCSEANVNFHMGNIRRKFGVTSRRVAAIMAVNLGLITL
UniProt P35372, whole entry: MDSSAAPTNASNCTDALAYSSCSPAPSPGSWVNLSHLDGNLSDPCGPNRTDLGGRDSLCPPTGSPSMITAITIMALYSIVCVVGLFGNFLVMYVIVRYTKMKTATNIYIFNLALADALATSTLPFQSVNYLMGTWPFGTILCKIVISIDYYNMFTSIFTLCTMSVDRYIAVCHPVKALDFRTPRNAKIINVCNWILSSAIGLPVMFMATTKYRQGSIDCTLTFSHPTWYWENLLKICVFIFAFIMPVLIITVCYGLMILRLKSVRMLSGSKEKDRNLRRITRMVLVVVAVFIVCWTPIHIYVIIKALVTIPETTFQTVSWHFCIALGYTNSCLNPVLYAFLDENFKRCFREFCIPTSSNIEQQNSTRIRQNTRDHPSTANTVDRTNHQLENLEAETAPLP
UniProt Q01959, whole entry: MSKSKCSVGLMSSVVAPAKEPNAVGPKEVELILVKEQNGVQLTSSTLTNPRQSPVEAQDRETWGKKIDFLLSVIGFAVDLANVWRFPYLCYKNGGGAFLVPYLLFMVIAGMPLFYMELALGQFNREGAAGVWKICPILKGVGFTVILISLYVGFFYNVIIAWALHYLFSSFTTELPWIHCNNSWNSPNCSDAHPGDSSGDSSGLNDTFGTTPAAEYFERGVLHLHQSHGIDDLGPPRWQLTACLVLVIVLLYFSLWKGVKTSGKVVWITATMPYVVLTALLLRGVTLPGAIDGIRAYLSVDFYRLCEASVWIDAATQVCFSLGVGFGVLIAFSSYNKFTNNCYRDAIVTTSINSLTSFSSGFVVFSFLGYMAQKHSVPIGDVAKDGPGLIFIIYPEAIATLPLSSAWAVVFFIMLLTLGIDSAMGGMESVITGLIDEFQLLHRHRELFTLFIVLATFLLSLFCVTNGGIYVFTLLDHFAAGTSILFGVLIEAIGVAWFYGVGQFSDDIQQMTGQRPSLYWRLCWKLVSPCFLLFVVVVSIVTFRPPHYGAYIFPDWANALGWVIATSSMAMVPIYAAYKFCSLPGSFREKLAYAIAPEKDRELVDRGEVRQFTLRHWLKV
UniProt P32300, whole entry: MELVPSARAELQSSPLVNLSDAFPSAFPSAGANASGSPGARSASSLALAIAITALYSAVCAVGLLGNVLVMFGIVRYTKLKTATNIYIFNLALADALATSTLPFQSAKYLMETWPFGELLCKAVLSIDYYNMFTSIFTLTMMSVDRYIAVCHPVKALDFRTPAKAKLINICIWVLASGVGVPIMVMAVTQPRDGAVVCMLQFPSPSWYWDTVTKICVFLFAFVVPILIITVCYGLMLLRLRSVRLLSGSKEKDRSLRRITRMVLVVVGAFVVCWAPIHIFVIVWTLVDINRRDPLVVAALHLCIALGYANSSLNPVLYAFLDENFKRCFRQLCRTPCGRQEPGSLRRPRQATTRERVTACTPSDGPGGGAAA
UniProt P21554, whole entry: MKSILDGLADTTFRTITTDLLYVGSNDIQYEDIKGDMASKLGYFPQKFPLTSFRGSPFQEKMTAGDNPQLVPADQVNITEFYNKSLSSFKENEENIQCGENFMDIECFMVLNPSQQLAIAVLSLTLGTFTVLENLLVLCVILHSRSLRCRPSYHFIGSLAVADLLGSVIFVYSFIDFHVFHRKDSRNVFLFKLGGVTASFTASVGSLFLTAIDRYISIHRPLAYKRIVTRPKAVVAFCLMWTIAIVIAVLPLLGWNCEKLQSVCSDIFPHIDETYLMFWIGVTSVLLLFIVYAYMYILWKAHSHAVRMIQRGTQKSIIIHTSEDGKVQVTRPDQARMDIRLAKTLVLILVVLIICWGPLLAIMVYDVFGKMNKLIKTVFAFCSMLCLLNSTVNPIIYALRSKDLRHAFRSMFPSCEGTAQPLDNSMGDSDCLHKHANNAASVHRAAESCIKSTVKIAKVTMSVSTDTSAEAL
UniProt P29990, 1476-2093 limits assumed: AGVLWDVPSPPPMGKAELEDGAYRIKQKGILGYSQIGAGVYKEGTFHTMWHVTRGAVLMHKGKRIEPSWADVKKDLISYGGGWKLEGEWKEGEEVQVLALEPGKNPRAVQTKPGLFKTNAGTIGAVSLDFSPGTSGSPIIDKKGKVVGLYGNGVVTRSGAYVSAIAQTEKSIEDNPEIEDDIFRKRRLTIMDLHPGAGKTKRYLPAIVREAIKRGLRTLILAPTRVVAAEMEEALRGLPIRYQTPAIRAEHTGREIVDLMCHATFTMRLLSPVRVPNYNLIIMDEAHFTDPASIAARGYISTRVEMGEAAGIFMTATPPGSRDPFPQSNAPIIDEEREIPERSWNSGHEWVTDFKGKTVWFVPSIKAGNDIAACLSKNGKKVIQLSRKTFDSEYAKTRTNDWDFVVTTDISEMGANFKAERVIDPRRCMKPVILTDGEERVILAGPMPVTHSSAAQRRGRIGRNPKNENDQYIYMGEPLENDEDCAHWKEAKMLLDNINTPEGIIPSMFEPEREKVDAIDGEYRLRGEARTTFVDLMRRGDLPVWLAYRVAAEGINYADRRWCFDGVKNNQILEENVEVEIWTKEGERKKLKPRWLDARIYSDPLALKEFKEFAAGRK
UniProt P29990, 1346-1475 partner limits assumed: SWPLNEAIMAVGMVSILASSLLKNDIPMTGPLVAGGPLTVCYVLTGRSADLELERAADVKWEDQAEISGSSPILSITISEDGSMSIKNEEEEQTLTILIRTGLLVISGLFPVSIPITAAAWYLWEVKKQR
UniProt P54753, 34-998 limits assumed: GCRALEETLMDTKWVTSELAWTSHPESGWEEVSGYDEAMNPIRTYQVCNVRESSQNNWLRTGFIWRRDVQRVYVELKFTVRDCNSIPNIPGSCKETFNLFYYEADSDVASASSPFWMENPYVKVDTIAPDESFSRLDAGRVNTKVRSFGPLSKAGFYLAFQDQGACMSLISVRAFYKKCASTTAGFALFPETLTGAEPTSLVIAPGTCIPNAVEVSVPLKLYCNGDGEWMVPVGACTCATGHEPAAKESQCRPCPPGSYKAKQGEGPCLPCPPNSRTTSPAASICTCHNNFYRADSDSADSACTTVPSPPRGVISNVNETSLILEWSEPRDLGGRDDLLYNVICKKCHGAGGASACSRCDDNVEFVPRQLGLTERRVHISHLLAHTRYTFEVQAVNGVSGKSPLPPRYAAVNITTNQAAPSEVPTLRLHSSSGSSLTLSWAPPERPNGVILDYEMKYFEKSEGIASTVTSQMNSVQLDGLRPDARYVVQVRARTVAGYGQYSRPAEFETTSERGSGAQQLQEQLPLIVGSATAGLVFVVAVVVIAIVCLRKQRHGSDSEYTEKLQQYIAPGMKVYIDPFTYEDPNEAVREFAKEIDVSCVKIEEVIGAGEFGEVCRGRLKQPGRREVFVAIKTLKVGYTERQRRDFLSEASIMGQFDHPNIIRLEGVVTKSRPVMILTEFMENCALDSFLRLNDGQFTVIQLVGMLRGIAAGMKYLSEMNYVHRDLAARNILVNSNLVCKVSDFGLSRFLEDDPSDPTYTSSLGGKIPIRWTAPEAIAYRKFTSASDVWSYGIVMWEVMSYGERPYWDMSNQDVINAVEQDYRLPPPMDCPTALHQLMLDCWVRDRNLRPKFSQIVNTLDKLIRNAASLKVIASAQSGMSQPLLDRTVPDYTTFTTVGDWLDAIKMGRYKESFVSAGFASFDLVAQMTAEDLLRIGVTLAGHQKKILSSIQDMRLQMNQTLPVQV
UniProt P41145, whole entry: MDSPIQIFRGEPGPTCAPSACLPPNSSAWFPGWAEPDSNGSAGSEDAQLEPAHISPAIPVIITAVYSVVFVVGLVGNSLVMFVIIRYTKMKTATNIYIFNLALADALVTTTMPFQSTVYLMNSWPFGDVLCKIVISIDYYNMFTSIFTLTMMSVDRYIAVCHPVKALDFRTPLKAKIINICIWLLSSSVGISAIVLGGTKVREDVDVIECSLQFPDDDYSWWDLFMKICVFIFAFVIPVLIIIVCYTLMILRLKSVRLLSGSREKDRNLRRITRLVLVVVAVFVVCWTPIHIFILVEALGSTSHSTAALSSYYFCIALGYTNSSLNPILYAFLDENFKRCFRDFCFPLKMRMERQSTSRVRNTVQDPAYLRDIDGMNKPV
UniProt Q14833, 33-912 limits assumed: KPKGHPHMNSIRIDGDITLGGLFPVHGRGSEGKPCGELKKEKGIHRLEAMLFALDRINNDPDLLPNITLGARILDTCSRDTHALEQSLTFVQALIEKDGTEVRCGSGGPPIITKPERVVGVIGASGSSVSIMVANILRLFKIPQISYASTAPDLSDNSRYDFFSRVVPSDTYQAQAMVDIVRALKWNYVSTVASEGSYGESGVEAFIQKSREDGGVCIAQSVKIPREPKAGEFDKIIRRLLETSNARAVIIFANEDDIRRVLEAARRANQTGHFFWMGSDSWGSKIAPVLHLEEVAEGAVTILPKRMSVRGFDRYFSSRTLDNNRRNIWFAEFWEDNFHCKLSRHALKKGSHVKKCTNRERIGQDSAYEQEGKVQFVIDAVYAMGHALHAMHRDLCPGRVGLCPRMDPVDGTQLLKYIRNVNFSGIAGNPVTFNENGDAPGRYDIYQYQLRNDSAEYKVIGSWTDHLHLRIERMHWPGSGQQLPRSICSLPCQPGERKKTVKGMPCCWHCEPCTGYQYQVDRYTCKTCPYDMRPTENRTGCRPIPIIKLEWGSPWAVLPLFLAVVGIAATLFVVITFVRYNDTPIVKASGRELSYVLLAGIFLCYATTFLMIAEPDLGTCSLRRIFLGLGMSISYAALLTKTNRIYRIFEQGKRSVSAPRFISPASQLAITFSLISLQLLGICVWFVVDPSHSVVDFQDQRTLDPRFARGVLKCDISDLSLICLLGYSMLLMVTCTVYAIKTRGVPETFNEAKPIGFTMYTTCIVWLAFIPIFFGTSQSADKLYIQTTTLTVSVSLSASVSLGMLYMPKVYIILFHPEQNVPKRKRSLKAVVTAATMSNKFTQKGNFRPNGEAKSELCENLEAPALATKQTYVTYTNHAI
UniProt P11229, whole entry: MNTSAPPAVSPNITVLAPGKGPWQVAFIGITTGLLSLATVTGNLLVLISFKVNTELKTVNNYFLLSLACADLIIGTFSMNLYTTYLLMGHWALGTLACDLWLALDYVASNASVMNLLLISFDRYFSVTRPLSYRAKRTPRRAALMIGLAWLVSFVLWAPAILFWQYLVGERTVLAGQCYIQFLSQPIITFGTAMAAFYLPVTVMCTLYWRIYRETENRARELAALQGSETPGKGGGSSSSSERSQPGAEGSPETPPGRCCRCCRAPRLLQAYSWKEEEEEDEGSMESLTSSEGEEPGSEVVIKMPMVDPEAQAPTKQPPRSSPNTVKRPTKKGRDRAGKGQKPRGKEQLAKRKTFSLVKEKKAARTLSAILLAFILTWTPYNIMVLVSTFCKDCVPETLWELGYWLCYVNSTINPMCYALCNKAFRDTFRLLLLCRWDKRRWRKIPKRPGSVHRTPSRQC

| Compound | target | test | test system | setting | quantity | result |
| --- | --- | --- | --- | --- | --- | --- |
| COCOc1ccc(C(=O)OC2=C[C@@H](C(=O)OC)[C@]3(C)CC[C@H]4C(=O)O[C@H](c5ccoc5)C[C@]4(C)[C@H]3C2=O)cc1F | Mu-type opioid receptor (OPRM1, Homo sapiens, UniProt P35372) | agonist | – | – | EC50 | 0.0034 ± 0.0006 µM |
| CCCOC(=O)[C@@]12C[C@@H]1[C@@H](n1cnc3c(NC)nc(C#Cc4ccc(Cl)s4)nc31)[C@H](O)[C@@H]2O | Sodium-dependent dopamine transporter (SLC6A3, Homo sapiens, UniProt Q01959) | – | – | – | EC50 | 0.57 µM |
| CC(c1ccc(-c2ccsc2)cc1)n1ccnc1 (centres unmarked) | cyp121 | binding | – | – | Kd | 16.9 ± 2.2 µM |
| O=C(NCc1cc(Br)cc(Br)c1OC(=O)c1ccccc1[N+](=O)[O-])c1ccccc1[N+](=O)[O-] | lasR | reporter gene, agonist | Escherichia coli JLD271 lasI-lacZ reporter | – | EC50 | 0.000674 µM |
| N#Cc1cc(C(=O)N[C@@H]2CC[C@@]3(O)[C@H]4Cc5ccc(O)c6c5[C@@]3(CCN4CC3CC3)[C@H]2O6)ccn1 | Delta-type opioid receptor (Oprd1, Mus musculus, UniProt P32300) | agonist | CHO cell membranes | – | EC50 | 0.0299 ± 0.00399 µM |
| CC1(Cc2ccccc2)COc2cc(C(=O)Nc3ccccc3I)ccc21 (racemic) | Cannabinoid receptor 1 (CNR1, Homo sapiens, UniProt P21554) | – | CHO cell membranes | – | EC50 | > 10 µM |
| CC(c1ccc2c(c1)Cc1cc(F)ccc1-2)n1ccnc1 (centres unmarked) | cyp121 | binding | – | – | Kd | 17 ± 2 µM |
| N=C(N)NCCC[C@H](NC(=O)c1ccccc1)C(=O)N[C@@H](CCCCN)C(=O)N[C@@H](C(N)=O)c1ccc(OCc2ccccc2)cc1 | Genome polyprotein, NS2B-NS3 protease (dengue virus type 2, UniProt P29990) | reporter gene | HeLa DENV2 protease reporter | – | EC50 | 19.6 ± 1.8 µM |
| O=C(CCl)c1ccc2c(Nc3ccccc3)ncnc2c1 | Ephrin type-B receptor 3 (EPHB3, Homo sapiens, UniProt P54753) | EPHB3 autophosphorylation, inhibitor, immunoblot | HEK293, transfected | added: ephrin-B2 | EC50 | 0.3 µM |
| COCOc1ccc(C(=O)OC2=C[C@@H](C(=O)OC)[C@]3(C)CC[C@H]4C(=O)O[C@H](c5ccoc5)C[C@]4(C)[C@H]3C2=O)cc1Br | Kappa-type opioid receptor (OPRK1, Homo sapiens, UniProt P41145) | agonist | – | – | EC50 | > 10 µM |
| O=C(Oc1c(Br)cc(Br)cc1CNC(=O)c1ccccc1[N+](=O)[O-])c1ccccc1Cl | lasR | reporter gene, agonist | Escherichia coli JLD271 lasI-lacZ reporter | – | EC50 | 0.000924 µM |
| COc1ccc(S(=O)(=O)N2CCCN(CC(=O)Nc3ccccc3OC)CC2)cc1 | Metabotropic glutamate receptor 4 (GRM4, Homo sapiens, UniProt Q14833) | calcium mobilization, positive allosteric modulator | CHO cells with Gqi5 | added: glutamate EC20 | EC50 | > 10 µM |
| O=C(Oc1c(Br)cc(Br)cc1CNC(=O)c1ccccc1[N+](=O)[O-])c1ccccc1 | lasR | reporter gene, agonist | Escherichia coli JLD271 lasI-lacZ reporter | – | EC50 | 0.00116 µM |
| O=C(N[C@H]1CCCC[C@@H]1O)C1CN(Cc2ccc(-n3cccn3)cc2)c2ccccc2O1 (some centres unmarked) | Muscarinic acetylcholine receptor M1 (CHRM1, Homo sapiens, UniProt P11229) | calcium mobilization, agonist | high-expression cell line | – | EC50 | > 10 µM |

For quick reference, copied from above:
| Compound | target | test | test system | setting | quantity | result |
| --- | --- | --- | --- | --- | --- | --- |
| CC1(Cc2ccccc2)COc2cc(C(=O)Nc3ccccc3I)ccc21 (racemic) | Cannabinoid receptor 1 (CNR1, Homo sapiens, UniProt P21554) | – | CHO cell membranes | – | EC50 | > 10 µM |
